Measured values from different studies.
Lines come from different studies, so protocols differ. ± marks the error that the study gave.
CNR1: Cannabinoid receptor 1 (CNR1, Homo sapiens, UniProt P21554)
Chain of UniProt P21554 (whole entry, looked up): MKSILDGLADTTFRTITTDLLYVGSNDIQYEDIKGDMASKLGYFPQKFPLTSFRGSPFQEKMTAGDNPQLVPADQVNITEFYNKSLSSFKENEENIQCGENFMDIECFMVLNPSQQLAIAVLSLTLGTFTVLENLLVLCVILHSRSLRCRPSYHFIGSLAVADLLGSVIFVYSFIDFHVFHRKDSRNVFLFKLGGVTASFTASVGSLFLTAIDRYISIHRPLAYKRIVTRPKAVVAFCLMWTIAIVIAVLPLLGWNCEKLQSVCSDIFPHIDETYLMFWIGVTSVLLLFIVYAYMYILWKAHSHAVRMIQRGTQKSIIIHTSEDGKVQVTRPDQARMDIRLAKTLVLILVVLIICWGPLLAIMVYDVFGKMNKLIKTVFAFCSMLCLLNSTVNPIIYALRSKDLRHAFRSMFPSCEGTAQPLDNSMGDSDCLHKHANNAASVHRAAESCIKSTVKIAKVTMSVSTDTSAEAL
Gabrg2/Gabra3 with β3 subunit: Gabrg2/Gabra3, with β3 subunit (Rattus norvegicus, UniProt P18508+P20236)
Chain of UniProt P18508 (whole entry, looked up): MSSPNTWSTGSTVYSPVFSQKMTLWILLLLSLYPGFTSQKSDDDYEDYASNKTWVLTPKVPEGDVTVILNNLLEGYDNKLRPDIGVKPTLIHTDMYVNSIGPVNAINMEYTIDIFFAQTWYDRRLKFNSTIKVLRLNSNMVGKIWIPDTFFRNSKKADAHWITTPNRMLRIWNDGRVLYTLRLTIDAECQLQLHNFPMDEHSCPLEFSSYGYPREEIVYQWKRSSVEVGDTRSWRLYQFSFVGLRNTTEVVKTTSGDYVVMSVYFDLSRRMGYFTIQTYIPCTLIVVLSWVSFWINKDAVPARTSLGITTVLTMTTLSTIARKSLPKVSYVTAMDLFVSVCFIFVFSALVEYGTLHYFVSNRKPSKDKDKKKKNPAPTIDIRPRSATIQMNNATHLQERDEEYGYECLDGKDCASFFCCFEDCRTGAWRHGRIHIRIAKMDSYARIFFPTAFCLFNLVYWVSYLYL
Chain of UniProt P20236 (whole entry, looked up): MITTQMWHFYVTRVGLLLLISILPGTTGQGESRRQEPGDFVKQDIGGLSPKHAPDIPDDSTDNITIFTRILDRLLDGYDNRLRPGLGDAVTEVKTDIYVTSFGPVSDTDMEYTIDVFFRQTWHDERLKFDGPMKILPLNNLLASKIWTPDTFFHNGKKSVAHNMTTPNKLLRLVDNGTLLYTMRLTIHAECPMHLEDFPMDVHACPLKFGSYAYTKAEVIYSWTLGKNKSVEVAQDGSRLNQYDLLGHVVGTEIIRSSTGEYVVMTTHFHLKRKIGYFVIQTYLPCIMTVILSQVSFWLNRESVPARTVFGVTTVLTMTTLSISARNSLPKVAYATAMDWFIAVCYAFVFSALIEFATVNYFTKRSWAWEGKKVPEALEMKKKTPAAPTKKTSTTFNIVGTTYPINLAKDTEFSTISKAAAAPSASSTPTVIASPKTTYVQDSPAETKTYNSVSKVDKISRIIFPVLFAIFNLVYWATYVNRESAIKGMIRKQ
Chain of UniProt Q923Y9 (whole entry, unmodified, looked up): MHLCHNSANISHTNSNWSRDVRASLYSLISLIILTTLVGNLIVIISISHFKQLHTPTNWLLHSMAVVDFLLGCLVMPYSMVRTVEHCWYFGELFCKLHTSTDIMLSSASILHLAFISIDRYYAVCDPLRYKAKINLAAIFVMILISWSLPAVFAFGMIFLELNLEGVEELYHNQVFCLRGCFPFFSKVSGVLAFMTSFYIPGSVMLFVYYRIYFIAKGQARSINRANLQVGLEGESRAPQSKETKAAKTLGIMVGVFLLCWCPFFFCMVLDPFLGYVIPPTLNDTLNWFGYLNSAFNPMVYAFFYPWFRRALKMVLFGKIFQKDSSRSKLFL
Chain of UniProt P62813 (whole entry, looked up): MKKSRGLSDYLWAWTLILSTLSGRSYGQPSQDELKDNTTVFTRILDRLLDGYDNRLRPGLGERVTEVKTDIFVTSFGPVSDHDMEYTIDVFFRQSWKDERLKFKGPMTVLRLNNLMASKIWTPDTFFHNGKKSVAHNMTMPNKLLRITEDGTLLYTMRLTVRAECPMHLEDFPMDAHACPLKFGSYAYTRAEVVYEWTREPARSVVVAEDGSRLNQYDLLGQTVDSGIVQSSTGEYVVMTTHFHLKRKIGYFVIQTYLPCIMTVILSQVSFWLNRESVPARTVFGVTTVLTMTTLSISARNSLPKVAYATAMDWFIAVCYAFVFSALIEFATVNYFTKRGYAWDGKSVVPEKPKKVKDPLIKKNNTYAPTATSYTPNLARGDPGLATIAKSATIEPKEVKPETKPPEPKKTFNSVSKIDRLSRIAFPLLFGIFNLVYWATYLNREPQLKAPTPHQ
Chain of UniProt P28223 (whole entry, looked up): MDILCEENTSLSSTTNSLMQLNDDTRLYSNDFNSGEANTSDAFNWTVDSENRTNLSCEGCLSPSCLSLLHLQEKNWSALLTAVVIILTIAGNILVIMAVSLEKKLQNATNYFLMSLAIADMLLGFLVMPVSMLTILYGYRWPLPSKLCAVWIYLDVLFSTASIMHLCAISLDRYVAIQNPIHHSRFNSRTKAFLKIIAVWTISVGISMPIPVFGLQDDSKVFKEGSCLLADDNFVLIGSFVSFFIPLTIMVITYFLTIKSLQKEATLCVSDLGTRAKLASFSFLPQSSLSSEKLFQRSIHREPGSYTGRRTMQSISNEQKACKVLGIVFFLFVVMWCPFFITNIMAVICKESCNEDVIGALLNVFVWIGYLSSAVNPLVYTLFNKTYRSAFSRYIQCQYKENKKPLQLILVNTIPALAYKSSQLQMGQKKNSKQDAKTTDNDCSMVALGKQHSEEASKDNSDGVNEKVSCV
Chain of UniProt P08908 (whole entry, looked up): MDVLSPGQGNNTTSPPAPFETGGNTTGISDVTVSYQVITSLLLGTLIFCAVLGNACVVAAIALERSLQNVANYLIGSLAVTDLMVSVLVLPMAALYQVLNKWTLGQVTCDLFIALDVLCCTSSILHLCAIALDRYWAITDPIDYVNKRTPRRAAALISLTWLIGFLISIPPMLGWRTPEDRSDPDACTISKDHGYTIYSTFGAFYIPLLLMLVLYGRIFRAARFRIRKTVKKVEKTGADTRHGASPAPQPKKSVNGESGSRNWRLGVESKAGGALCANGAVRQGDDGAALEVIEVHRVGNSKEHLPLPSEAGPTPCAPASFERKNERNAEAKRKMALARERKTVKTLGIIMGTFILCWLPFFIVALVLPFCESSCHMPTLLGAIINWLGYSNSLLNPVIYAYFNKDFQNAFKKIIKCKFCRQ

CCCCCn1cc(C(=O)C2C(C)(C)C2(C)C)c2ccccc21 — Emax (CNR1; GIRK channel response, agonist; AtT20 expressing CB1; baseline: WIN 55212-2 10 µM): 51.3 ± 3.3%
O=C(NCC1CCCCC1)c1nn(Cc2ccc(F)cc2)c2ccccc12 — Emax (CNR1; calcium mobilization, agonist; CHO-K1 expressing Gαq16; baseline: CP55,940 maximum): 111 ± 2%
CN1CCCCC1Cn1cc(C(=O)c2cccc3ccccc23)c2ccccc21 (stereo not shown) — Emax (CNR1; GIRK channel response, agonist; AtT20 expressing CB1; baseline: WIN 55212-2 10 µM): 78.3 ± 2.7%
CN[C@@](C)(C[18F])C(=O)O — tracer uptake (DU-145 tumour model; host not given, pancreas; 1 h, tumour-bearing): 28 %ID/g
CC(C)[C@H](NC(=O)c1nn(Cc2ccc(F)cc2)c2ccccc12)C(N)=O — Emax (CNR1; GIRK channel response, agonist; AtT20 expressing CB1; baseline: WIN 55212-2 10 µM): 89 ± 2.9%
CN(C)CCc1c[nH]c2ccc(O)cc12 — Emax (5-hydroxytryptamine receptor 1A (HTR1A, Homo sapiens, UniProt P08908); calcium signal, agonist): 95%
CN1C(=O)CC(=O)N(c2ccccc2)c2cc(Cl)ccc21 — Emax (Gabrg2/Gabra3 with β3 subunit; positive allosteric modulator, whole-cell patch clamp; HEK293; α3β3γ2 subunits, with: GABA at EC10): 317 ± 30%
CC(C)(NC(=O)c1nn(Cc2ccc(F)cc2)c2ccccc12)C(=O)N1CCC[C@H]1C(N)=O — Emax (CNR1; calcium mobilization, agonist; CHO-K1 expressing Gαq16; baseline: CP55,940 maximum): 92 ± 3%
CN1CCN(C(=O)OC2c3nccnc3C(=O)N2c2ccc(Cl)cn2)CC1 (stereo not shown) — Emax (Gabrg2/Gabra3 with β3 subunit; GABA-induced chloride current, two-electrode voltage clamp; Xenopus oocytes; with: GABA at EC3): 559 ± 30%
O=C(NC1CCCCC1)c1nn(Cc2ccc(F)cc2)c2ccccc12 — Emax (CNR1; calcium mobilization, agonist; CHO-K1 expressing Gαq16; baseline: CP55,940 maximum): 111 ± 3%
COC(=O)[C@@H](NC(=O)c1cn(CCCCCF)c2ccccc12)C(C)(C)C — Emax (CNR1; GIRK channel response, agonist; AtT20 expressing CB1; baseline: WIN 55212-2 10 µM): 108 ± 4.3%
C[C@H]1CNCCc2ccc(Cl)cc21 — Emax (5-hydroxytryptamine receptor 2A (HTR2A, Homo sapiens, UniProt P28223); calcium signal, agonist, fluorescence; HEK293): 67%
CN1C(=O)CN=C(c2ccccc2)c2cc(Cl)ccc21 — Emax (Gabrg2/Gabra1, with β3 subunit (Rattus norvegicus, UniProt P18508+P62813); GABA-induced chloride current, two-electrode voltage clamp; Xenopus oocytes; with: GABA at EC3): 324 ± 22%
C=CCCCn1nc(C(=O)N[C@H](C(=O)OC)C(C)(C)C)c2ccccc21 — Emax (CNR1; GIRK channel response, agonist; AtT20 expressing CB1; baseline: WIN 55212-2 10 µM): 101 ± 5.2%
O=C(NCc1ccc(F)cc1)c1nn(Cc2ccc(F)cc2)c2ccccc12 — Emax (CNR1; calcium mobilization, agonist; CHO-K1 expressing Gαq16; baseline: CP55,940 maximum): 91 ± 4%
NCCc1ccc(Oc2ccc(O)cc2)c(I)c1 — Emax (Trace amine-associated receptor 1 (Rattus norvegicus, UniProt Q923Y9, F153Y); cAMP accumulation, agonist, cell-based; TM4 mutant; baseline: 1): 100%

A few entries again:
CN1C(=O)CN=C(c2ccccc2)c2cc(Cl)ccc21 — Emax (Gabrg2/Gabra1, with β3 subunit (Rattus norvegicus, UniProt P18508+P62813); GABA-induced chloride current, two-electrode voltage clamp; Xenopus oocytes; with: GABA at EC3): 324 ± 22%
C=CCCCn1nc(C(=O)N[C@H](C(=O)OC)C(C)(C)C)c2ccccc21 — Emax (CNR1; GIRK channel response, agonist; AtT20 expressing CB1; baseline: WIN 55212-2 10 µM): 101 ± 5.2%
